Experimental data pooled from the literature.
Numbers after ± are the reported error. Bridges are numbered along the chain shown (N, C = ends). Where no end group is shown, it is not given here. *: point of attachment.
B1: FITC-labelled, Ahx spacer, C-amide; FITC = O=C1OC2(c3ccc(O)cc3Oc3cc(O)ccc32)c2ccc(NC(=S)*)cc21; Ahx = NCCCCCC(=O)O; chain {FITC-Ahx}-KKGFYKKKQCRPSKGRKRGFCW-NH2 (cysteine pairing not given here)

CN(C)c1ccc2cc(-c3c(F)cccc3Cl)c(N)nc2c1 — secreted Par-4 level (mouse fibroblasts; Western blot; conditioned medium; 500 nM, 24 h, unit not given; baseline: Col1A1): 127 ± 1.4
Nc1nc2[nH]c(CCCc3ccc(C(=O)N[C@@H](CCC(=O)O)C(=O)O)s3)cc2c(=O)[nH]1 — reversal of growth inhibition (KB; concentration not given, with: thymidine 10 µM): no effect
CC1(C)CC(=O)C2=C(C1)Nc1cc(C(=O)c3ccccc3)ccc1NC2c1ccc(N2CCCC2)cc1 (centres unmarked) — EC50 (SH-SY5Y; cell growth or viability, MTS): 12300 nM
COCn1c(-c2ccccc2)cc2ccccc21 — viability (RAW264.7; sulforhodamine B; 50 µM, 20 h; baseline: vehicle): 67.3 ± 6.2%
O=C(NO)c1ccc(CNC(=O)c2cc(Cn3c4ccccc4c4ccccc43)on2)cc1 — GI50 (BXPC-3; cell growth or viability, MTS; 72 h): 2300 nM
Cc1ccc(C(=O)Nc2ccc(CN3CCN(C)CC3)c(C(F)(F)F)c2)cc1C#Cc1cnc2cccnn12 — GI50 (K562 K562-WT; 48 h): ~0.15 nM
fMLF analogue — pinocytic pool depletion rate constant (rabbit polymorphonuclear leukocytes; 2 x 10 to 8 M, 30 min, 37 °C): 0.198 min⁻¹
NC(=O)Cn1cc(COc2ccccc2-c2nc(-c3ccccc3)no2)nn1 — mRNA level (Caco-2; qPCR, item: EGFR; IC50, 24 h; baseline: untreated cancer cells): 0.37 ± 0.08 fold
CN1CCC(CNc2ccc3ncc(-c4cccc(OC(F)(F)F)c4)n3n2)CC1 — viability decrease (22Rv1-T; 2.5 µM, up to 72 h, with: paclitaxel 50 nM): ≤ 40%
COC1C(O)[C@@H](COP(=O)(O)OP(=O)([S-])OP(=O)(O)OP(=O)(O)OC[C@H]2O[C@@H](n3cnc4c(=O)[nH]c(N)nc43)C(O)C2O)O[C@H]1n1c[n+](C)c2c(O)nc(N)nc21 (mixture of isomers) — relative total luciferase expression (human immature dendritic cells; reporter gene; 72 h, cap on electroporated luciferase mRNA; baseline: beta-S-ARCA D1 capped mRNA): 0.2 ± 0.02
O=C(Cn1cc(COc2ccccc2-c2nc(Cc3ccccc3)no2)nn1)NNC(=S)Nc1ccccc1 — mRNA level (Caco-2; qPCR, item: TP53; concentration not given, 24 h; baseline: untreated): 4.36 ± 0.05 fold
CNC(=O)c1ccc(N2C(=S)N(c3ccc(C#N)c(C(F)(F)F)c3)C(=O)C2(C)C)cc1F — Ki (LNCaP; PSA expression, antagonist; 1 day, charcoal-stripped serum 3 days, with: 1 nM DHT): 30.8 nM
B1 — cellular uptake (CHO pgsA-745, GAG-deficient; flow cytometry; 20 µM, 2 h, 37 °C, FITC-labelled peptide; baseline: wild-type CHO-K1): < 20%
CC(=Cc1ccc(Br)o1)[N+](=O)[O-] — selectivity index (KB; mean of three Leishmania species; baseline: KB CC50 over Leishmania IC50): 17.9
CO[C@@H]1[C@H](O)[C@@H](COP(=O)(O)OP(=O)([O-])OP(=O)(O)OP(=O)(O)OC[C@H]2O[C@@H](n3cnc4c(=O)[nH]c(N)nc43)[C@H](O)[C@@H]2O)O[C@H]1n1c[n+](C)c2c(O)nc(N)nc21 — relative total luciferase expression (human immature dendritic cells; reporter gene; 72 h, cap on electroporated luciferase mRNA; baseline: beta-S-ARCA D1 capped mRNA): 0.11 ± 0.03
O=C(CCCc1cc(C(=O)NO)no1)Nc1nc(-c2ccccc2)cs1 — GI50 (BXPC-3; cell growth or viability, MTS; 72 h): 1500 nM
NS(=O)(=O)c1ccc(NC(=O)Nc2ccc(F)cc2)cc1 — viability decrease (HD-MB03 and Daoy medulloblastoma; cell viability, resazurin; 10 µM, 72 h, hypoxia; baseline: untreated): 10 to 15%
Cn1cc(Nc2nccc(-c3ccc4c(c3)CN(C3COC3)CC[C@H]4NC(=O)c3cn(C(C)(C)C)nn3)n2)cn1 — inhibition of gene upregulation (human B cells; item: stimulation-induced genes; 100 nM, 64 h, with: anti-IgM + CD40L + IL-21): 23%
Oc1nc(-c2ccc(C(F)(F)F)cc2)nc2c1CSCC2 — reporter activity (HEK293T; Wnt/β-catenin signalling, TOPFLASH luciferase; 20 µM, 24 h, with: Wnt-3a 100 ng/mL; baseline: Wnt-3a-stimulated control): 30%
NC(=O)Cn1cc(COc2ccccc2-c2nc(Cc3ccccc3)no2)nn1 — mRNA level (A549; qPCR, item: TP53; concentration not given, 24 h; baseline: untreated): 5.9 ± 0.04 fold
tetraglycine — EC50 (MELOE-1(36-44)-specific HLA-A*0201 CD8 T cell clone; TNF-alpha production, cross-presentation by mature DC; synthetic long peptide): 1200 nM
CC(C)C[C@H](NC(=O)[C@H](CCCCN)NC(=O)[C@H](CCCNC(=N)N)NC(=O)[C@@H]1CCCN1C(=O)[C@H](CCC(=O)O)NC(=O)CNC(=O)[C@H](Cc1ccc(O)cc1)NC(=O)[C@H](C)NC(=O)[C@@H](N)CO)C(=O)O — IFN-γ level (CD8+ T cells with peptide-pulsed DCs; concentration not given, 24 h): 177 ± 19.7 pg/mL
Nc1nc2cc(C(=O)O)ccc2cc1-c1ccccc1F — secreted Par-4 level (mouse fibroblasts; Western blot; conditioned medium; 500 nM, 24 h, unit not given; baseline: Col1A1): < 50
CGLKIQKNEC (disulfide 1-10 (inferred)) (cyclic, disulfide) — cell death (proliferating HUVEC; cytotoxicity; 1 mg/mL, 24 h, 37 °C, 2% FBS): inactive
COc1cc2c(cc1OC)C(CCC1(C)CCc3cc(OCc4ccc(F)cc4)ccc3O1)N(C)CC2 (centres unmarked) — Bcl-2 mRNA level (TNBC cells; qRT-PCR; 7.0 µM; baseline: DMSO): decreased
COc1cccc2c1C(=O)c1c(O)c3c(c(O)c1C2=O)C[C@@](O)(C(=O)CO)C[C@@H]3O[C@H]1C[C@H](N)[C@H](O)[C@H](C)O1 — IC50 ratio (HS5; cell viability; baseline: 3D mono-culture over tissue chip): ~33 fold
Cc1ccc(NC(=O)CSc2nnc(-c3ccc(NC(=O)c4cccnc4)cc3)n2N)cc1 — IC50 (RAW264.7; TNF-α release, inhibitor, ELISA; LPS-stimulated): 11100 nM
Nc1ccccc1C#Cc1cc(F)cc(F)c1 — inhibition (RAW264.7; NO release, inhibitor, Griess; 50 µM, 20 h, LPS-stimulated): 97.4%
CCN(CC)C(=O)Cc1c(-c2ccc(OCC[18F])cc2)nn2c(C)cc(C)nc12 — uptake (RAW264.7; 1 h, 37 °C, with: PK11195 5 ng/mL; baseline: added dose): 1.27%
CN(C)c1ccc2cc(-c3ccc(F)cc3)c(N)nc2c1 — secreted Par-4 level (mouse fibroblasts; Western blot; conditioned medium; 500 nM, 24 h, unit not given; baseline: Col1A1): 12.3 ± 2
Cc1ccccc1-c1cc2ccccc2[nH]1 — viability (RAW264.7; sulforhodamine B; 50 µM, 20 h; baseline: vehicle): 31.5 ± 2.7%
NS(=O)(=O)c1ccc(Nc2nc3nccc(-c4c(F)ccc(F)c4F)n3n2)cc1 — viability decrease (HD-MB03 and Daoy medulloblastoma; cell viability, resazurin; 10 µM, 72 h, hypoxia; baseline: untreated): 20 to 35%
NNC(=O)Cn1cc(COc2ccccc2-c2nc(-c3ccccc3)no2)nn1 — mRNA level (Caco-2; qPCR, item: PI3K; IC50, 24 h; baseline: untreated cancer cells): 0.43 ± 0.02 fold
CC(C)C[C@H](NC(=O)[C@@H](O)[C@H](N)Cc1ccccc1)C(=O)O — inhibition (U-937; cell proliferation; 145 µM, day 4, with: BSO 25 µM, 20 h preincubation): 53.4 ± 4.8%
Clc1ccc(-c2cc3ccccc3[nH]2)cc1Cl — viability (RAW264.7; sulforhodamine B; 50 µM, 20 h; baseline: vehicle): 67.4 ± 2.8%
N=C(N)NCCC[C@H](NC(=O)[C@@H]1CSSC[C@H](NC(=O)[C@H](Cc2ccc3ccccc3c2)NC(=O)[C@H](CCCNC(=N)N)NC(=O)[C@H](CCCNC(=N)N)NC(=O)CN2CCN(CC(=O)O)CCN(CC(=O)O)CC2)C(=O)N[C@@H](Cc2ccc(O)cc2)C(=O)N[C@@H](CCCNC(N)=O)C(=O)N[C@@H](CCCCN)C(=O)N[C@H](CCCCN)C(=O)N2CCC[C@H]2C(=O)N[C@@H](Cc2ccc(O)cc2)C(=O)N[C@@H](CCCNC(=N)N)C(=O)N[C@@H](CCCNC(N)=O)C(=O)N1)C(N)=O [fluorine-18 labelled] — cell uptake (CHO expressing CXCR4; 1 h, 37 °C; baseline: added radioactivity): 46.4 ± 1.33%
c1ccc(C2Cc3ccccc3N2)cc1 (centres unmarked) — viability (RAW264.7; sulforhodamine B; 50 µM, 20 h; baseline: vehicle): 103 ± 7.4%
CN(C)c1ccc2cc(-c3ccccc3F)c(N3CCOCC3)nc2c1 — secreted Par-4 level (mouse fibroblasts; Western blot; conditioned medium; 500 nM, 24 h, unit not given; baseline: Col1A1): 54.4 ± 2.8
c1ccc(Cn2c(-c3ccccc3)cc3ccccc32)cc1 — inhibition (RAW264.7; NO release, inhibitor, Griess; 50 µM, 20 h, LPS-stimulated): 0%
COc1ccc(C2=N[C@@H](c3ccc(Cl)cc3)[C@@H](c3ccc(Cl)cc3)N2C(=O)N2CCNC(=O)C2)c(OC(C)C)c1 — Hdm2 protein level (LNCaP; western blot; 20 µM, 48 h; baseline: vehicle): increased
COc1ccccc1-c1cc2ccc(N(C)C)cc2nc1N — secreted Par-4 level (mouse fibroblasts; Western blot; conditioned medium; 500 nM, 24 h, unit not given; baseline: Col1A1): 86 ± 12.2
COc1cc(/C=C/C(=O)CC(=O)/C=C/c2ccc(O)c(OC)c2)ccc1O — Tat secretion (HEK293T; western blot; 50 µM, 4 h): no effect
CCCCCc1ccc(-c2cc3ccccc3[nH]2)cc1 — inhibition (RAW264.7; NO release, inhibitor, Griess; 50 µM, 20 h, LPS-stimulated): 31.9%
CCn1cc(-c2cc(Cn3ccnc3)cc3c2CCN([C@H](c2cc(C)ccn2)C2CC2)C3=O)c(C(F)(F)F)n1 — GI50 (MOLM-13; cell growth or viability, ATP luminescence; 5 days): 27 nM
O=[N+]([O-])c1ccc2[nH]c(-c3ccccc3)cc2c1 — inhibition (RAW264.7; NO release, inhibitor, Griess; 50 µM, 20 h, LPS-stimulated): 66.1%
COc1cccc2c1C(=O)c1c(O)c3c(c(O)c1C2=O)C[C@@](O)(C(=O)CO)C[C@@H]3O[C@H]1C[C@H](N)[C@H](O)[C@H](C)O1 — mRNA level (Caco-2; qPCR, item: EGFR; IC50, 24 h; baseline: untreated): 0.15 ± 0.03 fold
CC1=C(CCC(=O)O)c2cc3[nH]c(cc4nc(cc5[nH]c(cc1n2)c(C)c5C(C)O)C(C)=C4C(C)O)c(C)c3CCC(=O)O (centres unmarked) — ghost morphology (red blood cells; bright-field and fluorescence microscopy; concentration not given, irradiation beyond lysis): no effect

Excerpt of the above:
tetraglycine — EC50 (MELOE-1(36-44)-specific HLA-A*0201 CD8 T cell clone; TNF-alpha production, cross-presentation by mature DC; synthetic long peptide): 1200 nM
Cn1cc(Nc2nccc(-c3ccc4c(c3)CN(C3COC3)CC[C@H]4NC(=O)c3cn(C(C)(C)C)nn3)n2)cn1 — inhibition of gene upregulation (human B cells; item: stimulation-induced genes; 100 nM, 64 h, with: anti-IgM + CD40L + IL-21): 23%
CN(C)c1ccc2cc(-c3ccc(F)cc3)c(N)nc2c1 — secreted Par-4 level (mouse fibroblasts; Western blot; conditioned medium; 500 nM, 24 h, unit not given; baseline: Col1A1): 12.3 ± 2
CCN(CC)C(=O)Cc1c(-c2ccc(OCC[18F])cc2)nn2c(C)cc(C)nc12 — uptake (RAW264.7; 1 h, 37 °C, with: PK11195 5 ng/mL; baseline: added dose): 1.27%
CNC(=O)c1ccc(N2C(=S)N(c3ccc(C#N)c(C(F)(F)F)c3)C(=O)C2(C)C)cc1F — Ki (LNCaP; PSA expression, antagonist; 1 day, charcoal-stripped serum 3 days, with: 1 nM DHT): 30.8 nM
COc1cc2c(cc1OC)C(CCC1(C)CCc3cc(OCc4ccc(F)cc4)ccc3O1)N(C)CC2 (centres unmarked) — Bcl-2 mRNA level (TNBC cells; qRT-PCR; 7.0 µM; baseline: DMSO): decreased
